Experimental data collected from several papers.
Parts stem from different laboratories: compare values within a part only.

Block 1
Target: Histone acetyltransferase KAT6A, both winged helices, GST fusion (KAT6A, Homo sapiens, UniProt Q92794, residues 1-181)
Method: protein binding microarray
Molecule type: double-stranded DNA, one strand shown
Medium: in vitro
Concentration: not given
Setting: 8-mer, flanks averaged, mean of 2 arrays, mostly near background
Reference: not given
Reading: higher = stronger binding
Residues (chain): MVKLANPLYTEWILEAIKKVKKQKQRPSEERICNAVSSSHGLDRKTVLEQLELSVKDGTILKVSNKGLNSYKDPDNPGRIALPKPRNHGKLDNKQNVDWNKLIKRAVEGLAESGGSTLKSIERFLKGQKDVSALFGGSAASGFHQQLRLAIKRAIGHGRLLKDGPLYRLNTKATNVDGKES
Strand	E-score
ACAAAGTC	-0.182
CCCGGTTA	0.2
GCCGTCGA	0.238
GTTTATCA	0.0789
CTTACCTA	-0.238
GGATTGCC	0.0355
GCAGGAAC	-0.034
CCGCAGAG	0.0706
CCAACCAC	-0.204
AGCATGAC	-0.0723
ATAACTAA	-0.0139
CGATATCG	0.177
ACCGTTAA	0.108
ATTTTTAG	-0.0379
TTCGAAAA	0.0703
CATGGCTC	0.0571

Block 2
Target: RNA binding protein fox-1 homolog 2, RRM domain, GST-SBP tag (RBFOX2, Homo sapiens, UniProt O43251-10, residues 100-194)
Method: RNA Bind-n-Seq
Molecule type: RNA
Medium: in vitro
Concentration: 365 nM
Setting: natural RNA segment, single round, ends assumed
Reference: no-protein control
Reading: higher = stronger binding
All sequences stand within: GGGAGUUCUACAGUCCGACGAUC … UGGAAUUCUCGGGUGCCAA
Target sequence (chain): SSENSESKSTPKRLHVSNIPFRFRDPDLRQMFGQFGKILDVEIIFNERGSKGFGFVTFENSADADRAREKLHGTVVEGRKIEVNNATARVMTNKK
Strand	RBNS enrichment (R)
UUGCCUGCCACAGAGCAAAAGGAGUGAGUGGAACAGAGUUGCUUCUUACUAGGAGCACAUUCUUUGCCUGCCUUCCCUUCAUCCUAUCCUCUUUGCUUGCUCUCACCUCA	15.4
UUGUCACUGGACUGUCUCUGGGCCUGCUUAGACGGGGAUUGACACACAGAAUGGAACUGUGAGUGGAGAGAUGAAUAAGUUGCCCCCCCAGCCCCCCUUCCCAUUUGUUU	0.374
UAUGUGACUAGUAUUUAUCCUUUACUUCUGUGUUUUCUUAGGAUGUACACUUUUAGAGUUAUAGUGCCUGAUAAUAUUUUUUGAGAGCCUUUAAUAUGAUAUAGGAAGGC	0.519
UAAUACAAUCUACUGUACAGUUAGCAAGCGAAGUGUUAAAUGGAGAAGAUGCUUGUUUUUAUUAAACAUUUGGAGAUUUAGAUAAUUUACAUUUUAACUGAAUGUCUAAA	1.34
UAGAAACUAUUUAGUUUUGGUAGAUUUUUUUUCUGACAAUGUGACCAGACUGAAUUUCCUCAUAAAGAAAAAAUGGCGUGCCUUGUGUCUGUGUUUCUCUUUUCUCUGAA	1.47
UGGCCCCCUCAUUCAGAGACUGCCCUUCUCACGGGCUCUAUGCCUGCACUGGGAAGGAAACAAAUGUGUAUAAACUGCUGUCAAUAAAUGACACCCAGACCUUCCGGCUC	0.259
CAUGGUCUUCGAUGUGGUUUUCAUUUACUGGUCAGGGGGCACCUCCCUGUAUUAGAAAUCUUGGAGGAAAGUCCCCAACUCCGUUCUGUCCCUUUCUUGUUCUUAGACAC	0.306
UUUUCAUAGUUGGUUCCUGGAGGUGUGCCAAGUGCCCGCUUGCCUCUUCUAGACCCACAGCUUCUUGAUCCACUUGUGGUUUCCAUGUCACUAAUGUAGAAACAUCAUGG	0.295
AGGAGCUGUGUGGAGUGAAGGAGAGAAAGUGUGGGAGAUCUCAUUGCUGGAAGGAGAAAAGGAAGGAAUCCCCCGAAAAUCAAAGCAGUCAGAAAAACCAGAGCGACUGU	1.23
AAAGAGCCUCAGUCUGACUGAUUUCAAACACUUUUUUUCUCCUGUGUAUUGCUUUUAAGAGAGCCAUCAGUUAGCUAUCAGAAUCUAGGUUGAUGCAUUUUUGUACUUAG	2.48
CAGGCACAGGAUGCUGAAAGCUAUGUUACUAUUCUUAGUUUGUAAAUUGUCCUUUUGAUACCAUCAUCUUGUUUUCUUUUUGUAGGUAUAAAUAAAAACACUGUUGACAA	0.327
CCCAACCUUCAGGCUGCCAGAUGCUCCCCUGACAACACCAGGCUACAGGAGCCAGACGCCAGGGCCUGCCCGGCCUCCUGUUCCUGCCCCCACCCACCACCUGCCUGGAG	0.259

Block 3
Target: Interferon regulatory factor 7, full length, phosphomimetic (IRF7, Homo sapiens, UniProt Q92985, residues 1-503, S101K/S471D/S472D/S475D/S476D/S477D/S483D/S484D/S487D)
Method: protein-binding microarray
Molecule type: double-stranded DNA, one strand shown
Medium: in vitro
Concentration: 250 nM
Setting: 60-bp whole probe
Added: salmon DNA 0.4 mg/ml
Reference: random background probes
Reading: higher = stronger binding
All sequences stand within: GCCTAGCAC … GTCTTGATTCGCTTGACGCTGCTG
Residues (chain): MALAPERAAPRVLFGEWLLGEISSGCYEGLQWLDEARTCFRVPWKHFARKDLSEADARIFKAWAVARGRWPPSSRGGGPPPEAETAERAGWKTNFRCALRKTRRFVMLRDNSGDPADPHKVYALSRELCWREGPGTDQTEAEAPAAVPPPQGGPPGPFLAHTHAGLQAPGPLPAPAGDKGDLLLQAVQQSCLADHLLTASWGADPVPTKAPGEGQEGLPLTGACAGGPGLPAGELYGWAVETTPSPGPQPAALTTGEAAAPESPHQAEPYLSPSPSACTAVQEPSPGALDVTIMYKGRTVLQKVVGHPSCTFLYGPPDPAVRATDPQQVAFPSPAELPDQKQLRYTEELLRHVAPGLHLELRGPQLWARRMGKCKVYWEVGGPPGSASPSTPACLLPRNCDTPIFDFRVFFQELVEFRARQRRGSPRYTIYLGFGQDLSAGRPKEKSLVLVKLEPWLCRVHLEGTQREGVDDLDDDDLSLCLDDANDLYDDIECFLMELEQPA
Strand	log fluorescence [z-score]
TCAAGTTTGACATCTTCAACTGTGCTA	0.0235
GACGGTTCCAGTTTCGGGACGTGCTAG	3.67
TAACATATTCTCTTCTTGCAGTGCTAG	0.754
TCATTTTTTTTTCCCTGACTGTGCTAG	1.08
TTAGATATCTGGTTTCGATTAGTGCTA	8.57
TTGCTTCTATAGGCTAGAATCGTGCTA	-0.346
TTAGGTATGGACACTGGGTTAGTGCTA	-0.825
TCAGCTATGTTGTCCAGGACTGTGCTA	-0.583
TGATGACTGGAGTCTGGACTAGTGCTA	-0.828
TTAGGTTTCGGTTCCGGTTGGTGCTAG	12.5
GACGAGCTGGGGACTGGAGACGTGCTA	-1.05
GACGGTCTCGGTATCTGGACGTGCTAG	1.66
TTAAGTATCGGGTATCGGTTAGTGCTA	1.37
TTCGATATCAGTCTCGATTAGTGCTAG	1.53
TTAGGACTGTACACTGGGTTAGTGCTA	-0.416
TTAGGTATCGACTATCAGTTAGTGCTA	0.34
GACGGTCTCCTTCTACTGACGTGCTAG	-0.166
TACGGACTGGGGTATCGGGACGTGCTA	-0.454
TTAGAACTGGGGTCTGGATTAGTGCTA	-0.467
AAAGTTTTTCATTTTTTTTCGTGCTAG	0.957
TTAGTTCTCGGTTTCGGTTAGTGCTAG	10.4
TCATGTCTCCCCCATCTTACTGTGCTA	-0.314
TGAGGACTGGGACTGGGTTAGTGCTAG	-0.489

Block 4
Target: Ras GTPase-activating protein-binding protein 1, RRM domain (G3BP1, Homo sapiens, UniProt Q13283)
Sequence of UniProt Q13283 (whole entry, looked up): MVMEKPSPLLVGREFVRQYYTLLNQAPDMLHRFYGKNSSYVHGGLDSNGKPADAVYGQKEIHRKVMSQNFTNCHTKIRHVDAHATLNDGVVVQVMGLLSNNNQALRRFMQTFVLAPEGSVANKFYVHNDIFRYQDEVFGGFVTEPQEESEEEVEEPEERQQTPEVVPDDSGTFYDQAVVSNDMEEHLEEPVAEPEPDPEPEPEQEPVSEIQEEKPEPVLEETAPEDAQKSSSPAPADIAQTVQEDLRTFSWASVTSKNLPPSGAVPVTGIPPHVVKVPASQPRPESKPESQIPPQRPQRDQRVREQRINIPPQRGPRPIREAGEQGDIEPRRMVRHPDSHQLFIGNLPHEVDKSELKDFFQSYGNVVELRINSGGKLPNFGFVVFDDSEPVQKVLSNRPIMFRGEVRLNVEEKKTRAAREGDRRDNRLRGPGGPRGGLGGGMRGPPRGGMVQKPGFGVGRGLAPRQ
Method: RNA Bind-n-Seq
Molecule type: RNA
Medium: in vitro
Concentration: 1 µM
Setting: whole 134-nt RNA, ends assumed
Added: 150 mM KCl
Reference: input library
Reading: higher = stronger binding
All sequences stand within: GGGAGUUCUACAGUCCGACGAUC … UGGAAUUCUCGGGUGUCAAGG
Strand	log2 enrichment
ACCAUGCAGGUGGGCAUCUUUGAAAAGUGGGGCAAGGGGGGGAUAGGGAGGGGGGUAACACUUUGGGAACAGGUGGUCCCAGGUCGUUUC	-0.532
CCUGUGCUACACAUCGUAUGUACCGAAUCGGGUUUUUUGGGGUUUUUUGGGGUUUUUUGGAAAGUAUUAUGUUACGCCGUUCGGAUCUGC	-0.205
GCAGGAACUAAAAACAAAUGGAAAUGCUUCGGAUAGUGGCAGGGGUGGGGGUUGCUAAGGAAAGGGUGGGAUGGGAGUGGGUAAAGAGUU	1.06
CUGUGCUACACAUCGUAUGUACCGAAUCGGGGUUUUUGGGGAAAAAAAGGGGAAAAAGGGGAAAGUAUUAUGUUACGCCGUUCGGAUCUG	0.757
CAAGUCCUGUGCUACACAUCGUAUGUACCGAAUCGGGUUUGGGGUUUGGGUUUGGGAAAGUAUUAUGUUACGCCGUUCGGAUCUGCACUU	0.579
UCCUCAAGUCCUGUGCUACACAUCGUAUGUACCGAAUCGGUGGAGGAAAGGAAAGUAUUAUGUUACGCCGUUCGGAUCUGCACUUCCAGC	-0.116
UGGCCCUGGUGGCAUGCGGGGAGGAAGAGGUGGCCUCAUGGAUCGUGGUGGUCCCGGUGGAAUGUUCAGAAGUGGCCGUGGUGGAGACAG	1.39
GAGGAGACUCUGCGCAGAGCACUUUGGGUCCGGAGGGCGAGACUCCGGCGGAAGCAUUCCCGGGCGGGUGACCCAGCACGGUCCCUCUUG	-0.824
CACAGACAACACGCACCCACACAGACACAGAGGGAAGGGGUUGGGAUGGGGAUAGGGUGCACAGCAGGGCGGGGUAGGACCCCAGCCCCU	0.285
GUCCUGUGCUACACAUCGUAUGUACCGAAUCGGGUUUUUUUGGGUUUUUUUGGGUGGGAAAGUAUUAUGUUACGCCGUUCGGAUCUGCAC	0.156
ACCAUGCAGGUGGGCAUCUUUGGGAAGUGGGGCAAGGGGGGGAUAGGGAGGGGGGUCACACUUUGGGAACAGGUGGUCCCAGGUCGUUUC	0.719
ACCAUGCAGGUGGGCAUCUUUGGGAAGUGGGGCAAGGGGGGGAUAGGGAGGGGGGUAACACUUUGGGAACAAAAGGUCCCAGGUCGUUUC	-0.378
CCUCAAGUCCUGUGCUACACAUCGUAUGUACCGAAUCGGGUGGGUGGGAGGGAAAGUAUUAUGUUACGCCGUUCGGAUCUGCACUUCCAG	0.754
GCAGGAAGUAAAAACAAAUGGAAAUGCUUCGGAAAGUGGCAGGGGUGGGGGUUGCUAAGGAAAGGGUGGGAUGGGAGUGGGUAAAGAGUU	1.41

A few entries again (block 3):
Strand	log fluorescence [z-score]
GACGGTCTCCTTCTACTGACGTGCTAG	-0.166
TGAGGACTGGGACTGGGTTAGTGCTAG	-0.489
TCATGTCTCCCCCATCTTACTGTGCTA	-0.314
TTGCTTCTATAGGCTAGAATCGTGCTA	-0.346
TTAGATATCTGGTTTCGATTAGTGCTA	8.57
TTAGGTATGGACACTGGGTTAGTGCTA	-0.825
TTAGAACTGGGGTCTGGATTAGTGCTA	-0.467
TTAAGTATCGGGTATCGGTTAGTGCTA	1.37
GACGGTTCCAGTTTCGGGACGTGCTAG	3.67
TTCGATATCAGTCTCGATTAGTGCTAG	1.53
